Measurements collected from several papers.
Protocols differ between the studies behind these lines. Values joined by “and” are separate records of one study, mostly repeats; a detail may differ. ± marks the error that the study gave.
LCK: Tyrosine-protein kinase Lck (LCK, Homo sapiens, UniProt P06239)
fabG: 3-oxoacyl-[acyl-carrier-protein] reductase FabG (fabG, Pseudomonas aeruginosa, UniProt O54438)
TST: Thiosulfate sulfurtransferase (TST, Bos taurus, UniProt P00586)
MAOA: Amine oxidase [flavin-containing] A (MAOA, Homo sapiens, UniProt P21397)
ORF1 3C-like protease: Genome polyprotein, 3C-like protease (ORF1, Hu/NV/NV/1968/US, UniProt Q83883)

| SMILES | target | assay | system | conditions | IC50 |
| --- | --- | --- | --- | --- | --- |
| CC(=O)OCC(C)C | uncharacterized protein (Drosophila suzukii, UniProt A0AB39ZCT4) | binding, bis-ANS competition fluorescence | – | pH 7.4, with: bis-ANS | > 50 µM |
| Cc1cnc(-c2ccc(-c3ccc(NC(=O)Nc4c(F)cc(F)cc4F)cc3F)c3c2C(=O)NC3)[nH]1 | LCK | enzyme activity, inhibitor, mobility shift | – | with: ATP 1 mM | 0.0117 µM |
| NC(=O)c1sc(-c2ccccc2)cc1NC(=O)c1cccs1 | fabG | – | – | – | 0.04 µM |
| O=C(Nc1ccc(Sc2nc3ccccc3s2)cc1)c1cccc(Br)c1O | TST | enzyme activity, inhibitor | – | native rhodanese counter-screen | > 100 µM |
| c1cc(-c2cc3ncc(OCC4CCNCC4)nc3cc2-c2cccc(N3CCCCC3)c2)cc(N2CCCCC2)c1 | Protein ENL, with AF4 (MLLT1, Homo sapiens, UniProt Q03111) | AlphaScreen | – | – | 0.65 ± 0.01 µM |
| OC[C@H]1O[C@H](O[C@H]2O[C@H](CO)[C@@H](O)[C@H](O)[C@H]2O)[C@H](O)[C@@H](O)[C@@H]1O | uncharacterized protein (Drosophila suzukii, UniProt A0AB39ZGK5) | binding, bis-ANS competition fluorescence | – | pH 7.4, with: bis-ANS | > 50 µM |
| O=C(Nc1cccc(F)c1)c1ccc2c(c1)C(=O)NC2=O | MAOA | – | – | – | > 40 µM |
| Cc1ccc(CNC(=O)N2CCC[C@]3(CCN(Cc4ccc(Cl)c(Cl)c4)C3)C2)cc1 | Serine/threonine-protein kinase/endoribonuclease IRE1 (ERN1, Homo sapiens, UniProt O75460) | RNase activity, inhibitor, FRET suppression | – | 90 min preincubation, with: XBP1 RNA substrate | 17.1 µM |
| c1ccc2[nH]ccc2c1 | uncharacterized protein (Bradysia odoriphaga, UniProt A0A2S0X9G4) | binding, competitive fluorescence displacement | – | pH 7.4 | > 50 µM |
| CC(C)C[C@H](NC(=O)[C@H](Cc1cccc2ccccc12)NC(=O)OCc1ccccc1)C(=O)NC(C[C@@H]1CCNC1=O)C1CO1 (some centres unmarked) | ORF1 3C-like protease | protease activity, inhibitor, FRET | GI.1 | 37 °C | > 100 µM |
| O=S(=O)(Nc1ccc(-c2nc3cc(NS(=O)(=O)c4ccc(Cl)s4)ccc3o2)cc1)c1ccc(Cl)s1 | TST | enzyme activity, inhibitor | – | native rhodanese counter-screen | > 100 µM |
| CCCCCCCCCCCCCCCCCCCCCCC | uncharacterized protein (Drosophila suzukii, UniProt A0AB39ZCT4) | binding, bis-ANS competition fluorescence | – | pH 7.4, with: bis-ANS | > 50 µM |
| N#Cc1c(N)nc(-c2ccccc2)nc1C(F)(F)F | fabG | – | – | – | 0.04 µM |
| O=C1C[C@@H](c2ccc(O)cc2)Oc2cc(O)cc(O)c21 | uncharacterized protein (Drosophila suzukii, UniProt A0AB39ZGK5) | binding, bis-ANS competition fluorescence | – | pH 7.4, with: bis-ANS | 41.5 µM |
| COc1ccc(NC(=O)c2ccc3c(c2)C(=O)NC3=O)cc1Cl | MAOA | – | – | – | > 40 µM |
| CCCCCCCCCCCC(=O)OC | uncharacterized protein (Drosophila suzukii, UniProt A0AB39ZGK5) | binding, bis-ANS competition fluorescence | – | pH 7.4, with: bis-ANS | > 50 µM |
| COc1ccc(S(=O)(=O)Nc2ccc3oc(-c4ccc(NS(=O)(=O)c5cc(Br)ccc5OC)cc4)nc3c2)cc1 | TST | enzyme activity, inhibitor | – | native rhodanese counter-screen | > 100 µM |
| O=c1nc(SCc2cc(F)cc(C(F)(F)F)c2)nc(SCc2ccc3nc(Cl)ccc3c2)[nH]1 | DNA topoisomerase 2-alpha (TOP2A, Homo sapiens, UniProt P11388) | ATPase activity, inhibitor, competitive ATPase | – | with: 1 mM ATP | 29.6 µM |
| CN1CCN(c2ccc(Nc3ncc4cc(C#N)c(=O)n(C5CCCC5)c4n3)cc2)CC1 | Myosin light chain kinase 2, skeletal/cardiac muscle (MYLK2, Homo sapiens, UniProt Q9H1R3) | – | – | – | 0.524 µM |
| Cn1cc(C(=O)N2CCc3ccccc32)c2ccccc21 | fabG | enzyme activity, inhibitor, NADPH fluorescence | – | reverse reaction, geometric mean, with: 3-OH-decanoyl-NAC, NADP | 8.8 µM |
| CC[C@@H]1[C@H](F)C(=O)N[C@@H]1COc1nccc2cc(C(N)=O)c(OC)cc12 | Calcium/calmodulin-dependent protein kinase kinase 2 (CAMKK2, Homo sapiens, UniProt Q96RR4) | ATP-site probe binding, ActivX profiling | THP-1 cell lysate | Lys2 site | 2.9 µM |
| CCOc1ccccc1C(=O)Nc1noc2ccccc12 | fabG | enzyme activity, inhibitor, NADPH fluorescence | – | reverse reaction, geometric mean, with: 3-OH-decanoyl-NAC, NADP | 3.6 µM |
| Cc1ccc(S(=O)(=O)Nc2ccc(-c3nc4ccc(NS(=O)(=O)c5ccc(C)cc5)cc4[nH]3)cc2)cc1 | TST | enzyme activity, inhibitor | – | native rhodanese counter-screen | > 100 µM |
| CCCCCCCCC=O | uncharacterized protein (Bradysia odoriphaga, UniProt A0A2S0X9G4) | binding, competitive fluorescence displacement | – | pH 7.4 | > 50 µM |
| CN1C(=O)[C@@H](Cc2ccc(O)cc2)NC(=O)CNC(=O)[C@H](Cc2ccc3ccccc3c2)NC(=O)[C@H](CCCNC(=N)N)NC(=O)[C@H]1CCCNC(=O)c1ccc(NC(=O)CN2CCN(CC(=O)O)CCN(CC(=O)O)CCN(CC(=O)O)CC2)cc1 | C-X-C chemokine receptor type 4 (CXCR4, Homo sapiens, UniProt P61073) | – | – | – | 0.22 ± 0.162 µM |
| COc1ccc(NC(=O)c2ccc3c(c2)C(=O)NC3=O)cc1 | MAOA | – | – | – | > 40 µM |
| CN1CCC(CNc2ccc3ncc(-c4cccc(OC(F)(F)F)c4)n3n2)CC1 | LCK | binding, KINOMEscan binding | – | top concentration 10 µM | 0.215 µM |

| SMILES | target | assay | system | conditions | IC50 |
| --- | --- | --- | --- | --- | --- |
| Cc1cc(N)c2c(C)nn(-c3ccccc3)c2n1 | fabG | enzyme activity, inhibitor, NADPH fluorescence | – | reverse reaction, geometric mean, with: 3-OH-decanoyl-NAC, NADP | 2.3 µM |
| Cn1cc2c(C(=O)O)ccc(NS(=O)(=O)c3ccc(OCC4CCC4)c(Cl)c3)c2n1 | High affinity cGMP-specific 3',5'-cyclic phosphodiesterase 9A (PDE9A, Homo sapiens, UniProt O76083) | antagonist | – | off-target panel | > 200 µM |
| C/C1=C\CC/C(C)=C/CC(C)(C)/C=C/C1 | uncharacterized protein (Bradysia odoriphaga, UniProt A0A2S0X9G4) | binding, competitive fluorescence displacement | – | pH 7.4 | > 50 µM |
| COc1ccc2c(c1)CN(C(=O)CCN1CCC(Cc3ccccc3)CC1)CC[S@@+]2[O-] | Potassium voltage-gated channel subfamily KQT member 1, with KCNE1 (KCNQ1, Homo sapiens, UniProt P51787) | IKs current, inhibitor, whole-cell patch clamp | stable cell line | – | > 100 µM |
| CC/C=C\CCO | uncharacterized protein (Bradysia odoriphaga, UniProt A0A2S0X9G4) | binding, competitive fluorescence displacement | – | pH 7.4 | > 50 µM |
| COc1ccccc1S(=O)(=O)Nc1ccc(-c2nc3cc(NS(=O)(=O)c4ccccc4OC)ccc3o2)cc1 | TST | enzyme activity, inhibitor | – | native rhodanese counter-screen | > 100 µM |
| CCCCCCCCCCCC | uncharacterized protein (Bradysia odoriphaga, UniProt A0A2S0X9G4) | binding, competitive fluorescence displacement | – | pH 7.4 | > 50 µM |
| Cc1[nH]c(N)nc1/C=C/C(=O)c1cc(F)cc(F)c1 | Voltage-gated hydrogen channel 1 (HVCN1, Homo sapiens, UniProt Q96D96) | proton current, inhibitor, inside-out patch clamp | Xenopus laevis oocytes | pH 6.0 | 13.3 ± 1.3 µM |
| O=C(NCc1ccccc1)c1ccc2c(c1)C(=O)NC2=O | MAOA | – | – | – | > 40 µM |
| CC12CCC(CC1)C(C)(C)O2 | uncharacterized protein (Bradysia odoriphaga, UniProt A0A2S0X9G4) | binding, competitive fluorescence displacement | – | pH 7.4 | > 50 µM |
| COc1ccc(NC(=O)c2ccc3c(c2)C(=O)NC3=O)cc1OC | MAOA | – | – | – | > 40 µM |
| Cc1ccc(C(C)C)cc1O | uncharacterized protein (Bradysia odoriphaga, UniProt A0A2S0X9G4) | binding, competitive fluorescence displacement | – | pH 7.4 | > 50 µM |
| C[C@]12CC[C@@H]3c4ccc(O)cc4C[C@@H](CCCCCCCCC[S+]([O-])CCCC(F)(F)C(F)(F)F)[C@H]3[C@@H]1CC[C@@H]2O (some centres unmarked) | Mineralocorticoid receptor (NR3C2, Homo sapiens, UniProt P08235) | MR receptor activity, agonist, cell-based | – | – | > 10 µM |
| COc1cc(NC(=O)c2cccs2)c2ncccc2c1 | fabG | – | – | – | 0.11 µM |
| OCCc1ccccc1 | uncharacterized protein (Drosophila suzukii, UniProt A0AB39ZCT4) | binding, bis-ANS competition fluorescence | – | pH 7.4, with: bis-ANS | > 50 µM |
| O=C(NO)c1ccc(Cn2cnc3c(Nc4cccc([N+](=O)[O-])c4)ncnc32)cc1 | RAC-beta serine/threonine-protein kinase (AKT2, Homo sapiens, UniProt P31751) | kinase activity, inhibitor | – | with: ATP 10 µM | 17.8 µM |
| COc1ccc(S(=O)(=O)Nc2ccc3oc(-c4ccc(NC(=O)c5cccc(C)c5[N+](=O)[O-])cc4)nc3c2)cc1 | TST | enzyme activity, inhibitor | – | native rhodanese counter-screen | > 100 µM |
| O=C(Nc1cccc(Cl)c1)c1ccc2c(c1)C(=O)NC2=O | MAOA | – | – | – | > 40 µM |
| CC(=O)/C=C/C1=C(C)CCCC1(C)C | uncharacterized protein (Drosophila suzukii, UniProt A0AB39ZGK5) | binding, bis-ANS competition fluorescence | – | pH 7.4, with: bis-ANS | 7.05 µM |
| Nc1ncnc2c1ncn2[C@@H]1O[C@H](CSCC[C@H](N)C(=O)O)[C@@H](O)[C@H]1O | Genome polyprotein, NS5 methyltransferase domain (pol, Dengue virus type 3, UniProt Q6YMS4) | – | – | – | 0.8 µM |
| COC(=O)[C@H](c1ccccc1Cl)N1CCc2sccc2C1 | Cytochrome P450 2B4 (Oryctolagus cuniculus, UniProt P00178, F297A/H226Y/P221S) | – | mutant enzyme | with: 50 µM substrate | 0.4 ± 0.03 µM |
| C=CC(C)(CCC=C(C)C)OC(C)=O (centres unmarked) | uncharacterized protein (Drosophila suzukii, UniProt A0AB39ZGK5) | binding, bis-ANS competition fluorescence | – | pH 7.4, with: bis-ANS | > 50 µM |
| c1ccc(Oc2ccc(Nc3ccc4ncc(OCC5CCNCC5)nc4c3)cc2)cc1 | Protein ENL, with DOT1L (MLLT1, Homo sapiens, UniProt Q03111) | AlphaScreen | – | – | 1.5 ± 0.31 µM |
| COc1cc(/C=C/C(O)=C/C(=O)/C=C/c2ccc(O)cc2)ccc1O | Sarcoplasmic/endoplasmic reticulum calcium ATPase 1 (ATP2A1, Oryctolagus cuniculus, UniProt P04191) | ATPase activity, inhibitor | rabbit hind leg microsomes | pH 7.3, with: 0.22 mM ATP | 6.1 µM |
| COc1cc(O)c(CC=C(C)C)c(O)c1C(=O)/C=C/c1ccc(O)cc1 | Thyroxine 5-deiodinase (DIO3, Homo sapiens, UniProt P55073) | biochemical | – | – | 0.43 µM and 0.19 µM and 0.21 µM |
| CC(C)C[C@H](NC(=O)[C@H](Cc1cccc2ccccc12)NC(=O)OCc1ccccc1)C(=O)NC(/C=C/C=O)C[C@@H]1CCNC1=O (some centres unmarked) | ORF1 3C-like protease | protease activity, inhibitor, FRET | GI.1 | 37 °C | > 10 µM |

Some of these lines once more:
| SMILES | target | assay | system | conditions | IC50 |
| --- | --- | --- | --- | --- | --- |
| CC(=O)OCC(C)C | uncharacterized protein (Drosophila suzukii, UniProt A0AB39ZCT4) | binding, bis-ANS competition fluorescence | – | pH 7.4, with: bis-ANS | > 50 µM |
| COc1ccc(NC(=O)c2ccc3c(c2)C(=O)NC3=O)cc1OC | MAOA | – | – | – | > 40 µM |
| COc1ccccc1S(=O)(=O)Nc1ccc(-c2nc3cc(NS(=O)(=O)c4ccccc4OC)ccc3o2)cc1 | TST | enzyme activity, inhibitor | – | native rhodanese counter-screen | > 100 µM |
| COc1ccc(NC(=O)c2ccc3c(c2)C(=O)NC3=O)cc1Cl | MAOA | – | – | – | > 40 µM |
| CCCCCCCCCCCC(=O)OC | uncharacterized protein (Drosophila suzukii, UniProt A0AB39ZGK5) | binding, bis-ANS competition fluorescence | – | pH 7.4, with: bis-ANS | > 50 µM |
| OC[C@H]1O[C@H](O[C@H]2O[C@H](CO)[C@@H](O)[C@H](O)[C@H]2O)[C@H](O)[C@@H](O)[C@@H]1O | uncharacterized protein (Drosophila suzukii, UniProt A0AB39ZGK5) | binding, bis-ANS competition fluorescence | – | pH 7.4, with: bis-ANS | > 50 µM |
| CC[C@@H]1[C@H](F)C(=O)N[C@@H]1COc1nccc2cc(C(N)=O)c(OC)cc12 | Calcium/calmodulin-dependent protein kinase kinase 2 (CAMKK2, Homo sapiens, UniProt Q96RR4) | ATP-site probe binding, ActivX profiling | THP-1 cell lysate | Lys2 site | 2.9 µM |
| CCOc1ccccc1C(=O)Nc1noc2ccccc12 | fabG | enzyme activity, inhibitor, NADPH fluorescence | – | reverse reaction, geometric mean, with: 3-OH-decanoyl-NAC, NADP | 3.6 µM |
